Experimental data pooled from the literature.
Each line is one published result; not all experiments were run side by side. Numbers after ± are the reported error.
Chain of UniProt Q13177 (whole entry, looked up): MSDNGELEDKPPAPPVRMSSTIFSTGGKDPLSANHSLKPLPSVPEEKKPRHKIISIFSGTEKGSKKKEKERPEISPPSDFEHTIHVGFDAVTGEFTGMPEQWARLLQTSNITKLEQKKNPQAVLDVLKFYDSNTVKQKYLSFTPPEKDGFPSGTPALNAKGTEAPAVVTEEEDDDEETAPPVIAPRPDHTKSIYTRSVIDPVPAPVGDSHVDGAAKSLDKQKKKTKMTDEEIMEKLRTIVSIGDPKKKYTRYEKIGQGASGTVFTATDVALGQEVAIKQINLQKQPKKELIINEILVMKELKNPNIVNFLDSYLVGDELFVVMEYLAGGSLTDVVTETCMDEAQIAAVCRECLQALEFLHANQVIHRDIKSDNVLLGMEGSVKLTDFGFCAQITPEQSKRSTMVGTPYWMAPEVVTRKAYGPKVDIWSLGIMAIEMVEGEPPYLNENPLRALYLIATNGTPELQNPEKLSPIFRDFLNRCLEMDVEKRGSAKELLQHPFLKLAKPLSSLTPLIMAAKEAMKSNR

Structure (SMILES) | tested on | assay | system | conditions | scale | endpoint | value
CC(C)C[C@@H](NC(=O)[C@@H](CCCNC(=N)N)NC(=O)[C@@H](Cc1c[nH]cn1)NC(=O)[C@@H](Cc1c[nH]c2ccccc12)NC(=O)[C@@H](Cc1c[nH]cn1)NC(=O)[C@@H](Cc1ccccc1)NC(=O)[C@H](NC(=O)[C@@H](Cc1ccc(O)cc1)NC(=O)CNC(=O)CNC(=O)CCOCCOCCOCCNC(=O)CN1CCN(CC(=O)O)CCN(CC(=O)O)CC1)[C@H](C)O)C(=O)N[C@H](CC(N)=O)C(=O)N1CCC[C@@H]1C(=O)O [gallium-68 labelled] | – | gamma counting | C57BL/6 mice, male, blood | intravenous, 1.85 MBq, 60 min | – | tissue uptake | 0.9 ± 0.22 %ID/g
COc1ccccc1-c1n[nH]c2nc(NC3CCN(C(=O)Cc4ccc(F)cc4F)CC3)ncc12 | – | bead binding, competition bead pull-down, measured: LINJ.35.3390 | Leishmania donovani extract | 10 µM | reference: vehicle | relative abundance | 0.96
CCOP(=O)([O-])CNC(=O)CN1CCN(CC(=O)NCP(=O)([O-])OCC)CCN(CC(=O)NCP(=O)([O-])OCC)CCN(CC(=O)NCP(=O)([O-])OCC)CC1.[177Lu+3] | – | – | Sprague-Dawley rat, bone | intravenous (tail vein), dose not given, 2 h | – | tissue uptake | 0.002 ± 0.001 % injected dose/g
Cc1nc2cccc(OCC(C)(C)C(=O)NC(C)C)c2c(N)c1C(=O)[O-].[Na+] | Salmonella typhimurium | – | TA100 | 0.80 mg per plate, with S9, plate incorporation | – | revertant colonies per plate | 115 ± 9
CC[C@H](C)[C@H](NC(=O)[C@H](CCCCN)NC(=O)CNC(=O)[C@H](CC(C)C)NC(=O)[C@H](Cc1ccccc1)NC(=O)[C@H](CCCCN)NC(=O)[C@H](CO)NC(=O)[C@H](Cc1ccccc1)NC(=O)[C@H](Cc1c[nH]c2ccccc12)NC(=O)[C@H](CCC(N)=O)NC(=O)[C@@H](NC(=O)[C@H](Cc1ccccc1)NC(=O)CCCCCNC(=O)CN1CCN(CC(=O)O)CCN(CC(=O)O)CCN(CC(=O)O)CC1)C(C)C)C(=O)N[C@@H](CCC(=O)O)C(=O)N1CCC[C@H]1C(=O)N[C@@H](CC(=O)O)C(=O)N[C@H](C(=O)N[C@@H](CO)C(=O)N[C@@H](CCC(N)=O)C(=O)N[C@H](C(=O)N[C@@H](CCC(N)=O)C(=O)N[C@@H](CC(=O)O)C(=O)N1CCC[C@H]1C(=O)N[C@@H](CC(N)=O)C(=O)N[C@@H](CC(=O)O)C(=O)N[C@@H](CCC(N)=O)C(=O)N[C@@H](Cc1ccc(O)cc1)C(=O)N[C@@H](CCC(=O)O)C(=O)N1CCC[C@H]1C(=O)N[C@@H](Cc1ccccc1)C(=O)O)C(C)C)C(C)C [copper-64 labelled] | – | – | C57BL/6 male mouse, tumour-naive, brain | 0.5 h | – | tissue uptake | 0.33 ± 0.06 %ID/g
CN1Cc2cc(Cl)ccc2-n2c(nnc2C2CCN(c3cccc([18F])n3)CC2)C1 | – | – | C57BL/6 mouse male, small intestine | intravenous, dose not given, 5 min, added: blocking agent 10 mg/kg | – | tissue uptake | 6.34 ± 2.9 %ID/g
CCCC[C@H]1C(=O)N(C)[C@@H](CCCC)C(=O)N[C@@H](CCCNC(=O)CN2CCN(CC(=O)O)CCN(CC(=O)O)CCN(CC(=O)O)CC2)C(=O)N[C@H](C(=O)NCC(N)=O)CSCC(=O)N[C@@H](Cc2ccc(O)cc2)C(=O)N(C)[C@@H](C)C(=O)N[C@@H](CC(N)=O)C(=O)N2CCC[C@H]2C(=O)N[C@@H](Cc2c[nH]cn2)C(=O)N[C@@H](CC(C)C)C(=O)N(C)CC(=O)N[C@@H](Cc2c[nH]c3ccccc23)C(=O)N[C@@H](CO)C(=O)N[C@@H](Cc2c[nH]c3ccccc23)C(=O)N1C [gallium-68 labelled] | – | – | NOD/SCID mice with CHO-hPD-L1 xenograft, lung | 30 min post injection | – | tissue uptake | 6.85 ± 0.74 %ID/g
CC[C@H](C)[C@H](NC(=O)[C@H](CCCNC(=N)N)NC(=O)[C@H](CCCCN)NC(=O)[C@H](Cc1ccc(O)cc1)NC(=O)[C@H](CC(=O)O)NC(=O)[C@H](C)NC(=O)CNC(=O)CCOCCOCCOCCNC(=O)CN1CCN(CC(=O)O)CCN(CC(=O)O)CCN(CC(=O)O)CC1)C(=O)N[C@H](C(=O)N[C@@H](CC(C)C)C(=O)N[C@@H](CCCCN)C(=O)N[C@H](C(=O)N[C@@H](CC(N)=O)C(N)=O)C(C)C)[C@@H](C)O [copper-64 labelled] | – | ex vivo gamma counting | C57BL/6J male mice, B16-F10 tumour, pancreas | intravenous, 1.85 MBq, 5 min | – | tissue uptake | 1.32 ± 0.122 %ID/g
C[C@H](O)[C@@H](NC(=O)[C@H]1CCCN1C(=O)[C@@H](CCCCN)NC(=O)[C@@H](CO)NC(=O)[C@@H](Cc1ccc(O)cc1)NC(=O)[C@@H](CC(N)=O)NC(=O)CCOCCOCCOCCNC(=O)CN1CCN(CC(=O)O)CCN(CC(=O)O)CCN(CC(=O)O)CC1)C(=O)N[C@H](CC(=O)O)C(=O)N[C@H](CCCNC(=N)N)C(=O)N[C@H](CCC(N)=O)C(=O)N[C@H](Cc1ccc(O)cc1)C(=O)N[C@H](Cc1c[nH]cn1)C(=O)N[C@H](Cc1ccccc1)C(N)=O [gallium-68 labelled] | – | ex vivo gamma counting | BALB/c nude mouse, U-87 MG xenograft, intestine | intravenous, 1.85 MBq, 60 min | – | tissue uptake | 0.08 ± 0.02 %ID/g
CS(C)(=O)=Nc1ccc(-c2ccc(-c3nc4cc(O[C@@H]5CO[C@H]6[C@@H]5OC[C@H]6O)[nH]c4cc3F)cc2)cc1 | Serine/threonine-protein kinase PAK 2 (PAK2, Homo sapiens, UniProt Q13177) | enzyme activity, inhibitor | – | 10 µM | – | inhibition | 0%
Cc1ccccc1-c1ccc(-c2nc(-c3ccc(CN(C)CCCC(=O)O)c([18F])c3)no2)cc1C(F)(F)F | – | – | Sprague Dawley rats, male, pancreas | 5 min | – | tissue uptake | 0.83 ± 0.2 %ID/g
O=C1NC2(CC2)COc2ncc(F)cc2[C@H]2COCCN2c2ccn3ncc1c3n2 | – | – | Sprague-Dawley rat, female, serum | oral, 10 mg/kg/day, end of treatment, 4-week subacute toxicity | – | serum LDH activity | 762 ± 189 U/L
CSCC[C@H](NC(=O)CNC(=O)[C@H](CCCCN)NC(=O)[C@H](CC(C)C)NC(=O)[C@@H]1CCCN1C(=O)[C@H](CO)NC(=O)[C@H](Cc1c[nH]cn1)NC(=O)[C@H](Cc1c[nH]c2ccccc12)NC(=O)[C@H](CCCNC(=N)N)NC(=O)[C@H](CC(C)C)NC(=O)[C@H](CCCNC(=N)N)NC(=O)[C@H](Cc1c[nH]c2ccccc12)NC(=O)[C@H](CS)NC(=O)CCCCCNC(=O)CN1CCN(CC(=O)O)CCN(CC(=O)O)CCN(CC(=O)O)CC1)C(=O)O [copper-64 labelled] | – | ex vivo biodistribution | BALB/c nude mice, brain | intravenous, dose not given, 6 h, Huh-7 tumour-bearing | – | tissue uptake | 0.21 %ID/g

Repeated from above:
Structure (SMILES) | tested on | assay | system | conditions | scale | endpoint | value
Cc1nc2cccc(OCC(C)(C)C(=O)NC(C)C)c2c(N)c1C(=O)[O-].[Na+] | Salmonella typhimurium | – | TA100 | 0.80 mg per plate, with S9, plate incorporation | – | revertant colonies per plate | 115 ± 9
O=C1NC2(CC2)COc2ncc(F)cc2[C@H]2COCCN2c2ccn3ncc1c3n2 | – | – | Sprague-Dawley rat, female, serum | oral, 10 mg/kg/day, end of treatment, 4-week subacute toxicity | – | serum LDH activity | 762 ± 189 U/L
